Assay results pooled from the literature.
± gives the spread as reported.
Organism: Trypanosoma cruzi

Oc1ccccc1/C=C/c1ccc2ccccc2n1  selectivity index (Tulahuen; reference: U-937 LC50 over amastigote EC50): 1.6
Cc1nc(C)c(C(=O)Nc2ccc(F)c(-c3nc4ncc(-c5ccccn5)cn4n3)c2)o1  EC50 (parasite growth; epimastigote): 0.15 µM
C=C1C(=O)OC2CC(C)C3C=CC(=O)C3(C)C(OC(C)=O)C12 (stereo not shown)  selectivity index (epimastigote; reference: CC50 splenocytes over IC50 epimastigotes): 2
N=C(N)NCCC[C@H](NC(=O)[C@H](CCCNC(=N)N)NC(=O)[C@H](CCCNC(=N)N)NC(=O)[C@H](CCC(N)=O)NC(=O)[C@H](CCCNC(=N)N)NC(=O)[C@H](CCCNC(=N)N)NC(=O)[C@H](CCCCN)NC(=O)[C@H](CCCCN)NC(=O)[C@H](CCCNC(=N)N)NC(=O)CNC(=O)[C@H](Cc1ccc(O)cc1)NC(=O)CNC(=O)CNC(=O)[C@H](CCCCN)NC(=O)[C@H](CCCNC(=N)N)NC(=O)[C@H](CCC(N)=O)NC(=O)[C@H](CS)NC(=O)[C@H](CCC(N)=O)NC(=O)CNC(=O)[C@H](CC(N)=O)NC(=O)[C@@H](N)CCCNC(=N)N)C(N)=O  IC50 (viability, WST-1; Y strain, trypomastigotes; 24 h): ~20 µM
C=C1C(=O)O[C@@H]2C[C@H](C)[C@@H]3C[C@H](O[Si](C)(C)C)[C@H](O[Si](C)(C)C)[C@@]3(C)C[C@H]12  selectivity index (epimastigote; reference: CC50 splenocytes over IC50 epimastigotes): 5
N=C(N)NCCC[C@H](NC(=O)[C@H](CCCNC(=N)N)NC(=O)[C@H](CCCNC(=N)N)NC(=O)[C@H](CCC(N)=O)NC(=O)[C@H](CCCNC(=N)N)NC(=O)[C@H](CCCNC(=N)N)NC(=O)[C@H](CCCCN)NC(=O)[C@H](CCCCN)NC(=O)[C@H](CCCNC(=N)N)NC(=O)CNC(=O)[C@H](Cc1ccc(O)cc1)NC(=O)CNC(=O)CNC(=O)[C@@H]1CCCCNC(=O)CCC(=O)N[C@@H](CCCNC(=N)N)C(=O)N[C@@H](CC(N)=O)C(=O)NCC(=O)N[C@@H](CCC(N)=O)C(=O)N[C@@H](CS)C(=O)N[C@@H](CCC(N)=O)C(=O)N[C@@H](CCCNC(=N)N)C(=O)N[C@@H](CCCCN)C(=O)N1)C(N)=O  reduction of parasitemia (H1, BALB/c mice, infected; ip, 1.5 mg/kg/day, day 7; reference: vehicle): 85%
CCC(=O)C[C@@H](O)C[C@@H](C)C[C@H](NC(=O)[C@@H]1C[C@H](C)CN1C(=O)/C=C/[C@@H](C)CC)C(=O)N[C@H](C(=O)NC(C)(C)C(=O)N[C@@H](CC(C)C)C(=O)N[C@@H](CC(C)C)C(=O)NC(C)(C)C(=O)NC(C)(C)C(=O)NCCC(=O)N[C@@H](C)CNC)[C@H](O)C(C)C  EC50 (amastigote replication, high-content imaging; C2C12, CA-I/72; 72 h): 0.012 ± 0.0014 µM
CC(C)OC(=O)Nc1cnc2nc(-c3cc(NC(=O)c4ccco4)ccc3Cl)[nH]c2c1  EC20 (epimastigotes; 0.2% DMSO): 1.5 µM
Cc1ncc([N+](=O)[O-])n1CC(O)CF (stereo not shown)  IC50 (parasite growth; 24 h, trypomastigote): 1170 µM
CCCC[C@@H](O)C[C@@H](C)C[C@H](NC(=O)[C@@H]1C[C@H](C)CN1C(=O)/C=C/[C@@H](C)CC)C(=O)N[C@H](C(=O)NC(C)(C)C(=O)N[C@@H](CC(C)C)C(=O)N[C@@H](CC(C)C)C(=O)NC(C)(C)C(=O)NC(C)(C)C(=O)NCCC(=O)N[C@@H](C)CNC)[C@H](O)C(C)C  EC50 (amastigote replication, high-content imaging; C2C12, CA-I/72; 72 h): 0.0036 ± 0.0012 µM
Cc1ncnc2c1c(C(F)(F)F)cn2[C@@H]1O[C@H](CO)[C@@H](O)[C@H]1O  EC50 (CPRG readout; MRC-5 SV2, Tulahuen CL2 β-galactosidase; 7 days, intracellular amastigotes): 5.06 µM
C=C1C(=O)OC2CC(C)C3C=CC(=O)C3(C)C(O[Si](C)(C)C)C12 (stereo not shown)  selectivity index (epimastigote; reference: CC50 splenocytes over IC50 epimastigotes): 0.4
CC[C@H](C)/C=C/C(=O)N1C[C@@H](C)C[C@H]1C(=O)N[C@@H](CC(C)C)C(=O)N[C@H](C(=O)NC(C)(C)C(=O)N[C@@H](CC(C)C)C(=O)N[C@@H](CC(C)C)C(=O)NC(C)(C)C(=O)NC(C)(C)C(=O)NCCC(=O)N[C@@H](C)CNC)[C@H](O)C(C)C  EC50 (amastigote replication, high-content imaging; C2C12, CA-I/72; 72 h): 0.005 ± 0.0011 µM

Excerpt of the above:
N=C(N)NCCC[C@H](NC(=O)[C@H](CCCNC(=N)N)NC(=O)[C@H](CCCNC(=N)N)NC(=O)[C@H](CCC(N)=O)NC(=O)[C@H](CCCNC(=N)N)NC(=O)[C@H](CCCNC(=N)N)NC(=O)[C@H](CCCCN)NC(=O)[C@H](CCCCN)NC(=O)[C@H](CCCNC(=N)N)NC(=O)CNC(=O)[C@H](Cc1ccc(O)cc1)NC(=O)CNC(=O)CNC(=O)[C@H](CCCCN)NC(=O)[C@H](CCCNC(=N)N)NC(=O)[C@H](CCC(N)=O)NC(=O)[C@H](CS)NC(=O)[C@H](CCC(N)=O)NC(=O)CNC(=O)[C@H](CC(N)=O)NC(=O)[C@@H](N)CCCNC(=N)N)C(N)=O  IC50 (viability, WST-1; Y strain, trypomastigotes; 24 h): ~20 µM
C=C1C(=O)O[C@@H]2C[C@H](C)[C@@H]3C[C@H](O[Si](C)(C)C)[C@H](O[Si](C)(C)C)[C@@]3(C)C[C@H]12  selectivity index (epimastigote; reference: CC50 splenocytes over IC50 epimastigotes): 5
